# Assay results gathered from unrelated publications.
# Every numbered part comes from another study and shows a few of its results, in no order. Changes are numbered by the printed parent chain.

# Block 1 — target: CCNA2, cyclin fold, Cln2 fusion (human); method: yeast growth competition, sequencing; medium: yeast; notes: strong parent motif; reference: not given; direction: higher = stronger binding
# Starting sequence: PKN2 docking peptide (human); VSAVRKLDFSDTM; partner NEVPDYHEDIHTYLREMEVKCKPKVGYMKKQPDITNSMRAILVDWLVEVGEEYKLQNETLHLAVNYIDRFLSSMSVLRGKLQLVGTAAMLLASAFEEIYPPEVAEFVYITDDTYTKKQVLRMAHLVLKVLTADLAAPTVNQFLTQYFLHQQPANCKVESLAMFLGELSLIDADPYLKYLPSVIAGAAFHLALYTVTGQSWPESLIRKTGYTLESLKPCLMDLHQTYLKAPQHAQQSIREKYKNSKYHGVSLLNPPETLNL
Change,normalised enrichment score
V4N,5.13
S2H,5.19
A3N,0.756
L7D,0.205
V4D,0.618
A3G,2.57
S10R,5.3
S2G,5.68
D8G,2.41
S10T,5.3

# Block 2 — target: UBE2Z UBC core domain (UniProt Q9H832); method: yeast two-hybrid; medium: yeast; notes: mostly zero background; reference: not given; direction: higher = stronger interaction
# B1: ZNRF4 RING domain (UniProt Q8WWF5); chain VRTFTWHNDLCAICLDEYEEGDQLKILPCSHTYHCKCIDPWFSQAPRRSCPVCKQSVAATEDSF
# B2: RNF186 RING domain (UniProt Q9NXI6); chain HSGSTECDLECLVCREPYSCPRLPKLLACQHAFCAICLKLLLCVQDNTWSITCPLCRKVTAVPGGLI
# B3: RNF103 RING domain (UniProt O00237); chain WPADMLHCTECVVCLENFENGCLLMGLPCGHVFHQNCIVMWLAGGRHCCPVCRWPSYKKKQPY
# B4: TRIM11 RING domain (UniProt Q96F44); chain LSTNLQEEATCAICLDYFTDPVMTDCGHNFCRECIRRCWGQPEGPYACPECRELSPQRNLRP
# Target sequence (chain): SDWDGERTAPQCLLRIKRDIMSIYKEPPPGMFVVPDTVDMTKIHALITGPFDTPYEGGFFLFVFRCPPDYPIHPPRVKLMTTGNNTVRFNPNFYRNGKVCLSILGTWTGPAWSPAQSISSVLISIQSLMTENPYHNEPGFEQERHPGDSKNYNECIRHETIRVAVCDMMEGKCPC
Sequence,lacZ reporter activity
ASPKIFQKTKCSICNSALELPSVHFLCGHSFHQHCFESYSESDADCPTCLPENRKVMDMI (VPS11 RING domain (UniProt Q9H270)),0
B1 (ZNRF4 RING domain),0
EIKEYKARLTCPCCNTRKKDAVLTKCFHVFCFECVRGRYEARQRKCPKCNAAFGAHDFHR (RNF40 RING domain (UniProt O75150)),0
B2 (RNF186 RING domain),0
B3 (RNF103 RING domain),7950
B4 (TRIM11 RING domain),0

# Block 3 — method: RNA Bind-n-Seq; molecule type: RNA; medium: in vitro; concentration: 365 nM; reference: no-protein control; direction: higher = stronger binding
# Target: RNA binding protein fox-1 homolog 2, RRM domain, GST-SBP tag (RBFOX2, Homo sapiens, UniProt O43251-10, residues 100-194)
# Notes: natural RNA segment, single round, ends assumed
# Residues (chain): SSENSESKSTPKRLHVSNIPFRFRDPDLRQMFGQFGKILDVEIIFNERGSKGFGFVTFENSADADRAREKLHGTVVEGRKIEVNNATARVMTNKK
Oligonucleotide,RBNS enrichment (R)
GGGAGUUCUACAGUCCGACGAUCGUUGUGAGAUUGGGACACAUAUCUUGCCCAAUCAGAAGCUGUUUCUUAUCUUGAGAGUUAGGAGCACCAUAGGAUAUGAUGGUCUAUGUGCUGCCAACAGGCUCCCCGAAUGGAAUUCUCGGGUGCCAA,0.513
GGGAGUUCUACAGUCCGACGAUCCAGAAGUGACUUUGAGACUGUUCCUGCUGACCUUUUGAGAUAGUCACUUAAGGAAGGAUGGCUCUCUCUCAUCUGUCUCUUGUUCCUUAUUGUUGCAGAGCUAGCUCCACUGGAAUUCUCGGGUGCCAA,0.477
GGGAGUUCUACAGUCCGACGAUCAGACACCACAUGACAAGGGGUAUAAGCCCCAGCCCUGCUCAUUCCCACUCACCAGCUGAGGUCUGUCAGGUUUUGAAGGCUUGAUUUUGUGGUGGGUUUGGGGCUUAGUUUGGAAUUCUCGGGUGCCAA,0.333
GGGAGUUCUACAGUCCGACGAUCCUUGCUUGCUUUCUGUUCCUUCUAGCCUUGGUGACUUCCACCAGGAAGAGAAUACCCCCUCUCUACCCCUGCUCCAAGACACUGUAGAUGCUAGUGUCGGAGUGUUCUCUUGGAAUUCUCGGGUGCCAA,2.05
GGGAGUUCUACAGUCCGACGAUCCAGGCCAUUUCCAGUGAAAGAAACUUAGUUUUACAAGAAAACAUUUGCUACUGAAUGCUUACACUAAUCUUGGUGUUUAAUGUUACAUGCUUAAAUUCUUUUCAGUUUUCUGGAAUUCUCGGGUGCCAA,1.59
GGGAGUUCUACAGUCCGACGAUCUUAGAAAAUGAAGCAGUAGAAACAAAACCUUUAUUAGUAUGGUAUUCCAGCAGCACCUUUAAAGCAAUCUUUACCUUAGUUUUUUGAGUUGUUUUACCUUUCAUCCCAAUUGGAAUUCUCGGGUGCCAA,0.385
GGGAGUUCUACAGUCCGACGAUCCGGCCAGGAUGGCUGAGGGCGGAGUCUAUUUUACGCGUCGCCCAAUGACAGGACCUGGAAUGUACUGGCUGGGGUAGGCCUCAGUGAGUCGGCCGGUCAGGGCCCGCAGCUGGAAUUCUCGGGUGCCAA,0.947
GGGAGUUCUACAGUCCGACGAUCGGCAUUUUACCCUUGCAGUUUUACUAAAACACUGAAAAAUAUUCCAAGCUUCAUAUUAACCCUACCUGUCAACGUAACGAUUUCAUGAACGUUAUUAUAUUGUCGAAUUCUGGAAUUCUCGGGUGCCAA,0.354

# Block 4 — method: DHFR PCA, dose-response; medium: yeast; notes: Hill fit, mean, not affinity; added: (+)-ABA, dose series; direction: lower = more sensitive
# Target: ABI1, truncated, D143A, DHFR fusion (Arabidopsis thaliana, UniProt P49597)
# Starting sequence: PYL1, truncated, DHFR fusion (Arabidopsis thaliana, UniProt Q8VZS8); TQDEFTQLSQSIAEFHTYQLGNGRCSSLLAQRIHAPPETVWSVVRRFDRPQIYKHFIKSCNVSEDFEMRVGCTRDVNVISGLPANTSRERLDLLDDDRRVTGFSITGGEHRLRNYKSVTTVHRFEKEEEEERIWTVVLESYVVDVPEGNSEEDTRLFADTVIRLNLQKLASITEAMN
Change,ABA EC50 [µM]
I133Y,2.29
H16I,563
N114S,41.7
E128V,3.79
W134F,1.49
Y53V,320
F5Q,3.12
T160W,18.3
D144Q,24.5
S87C,186
L82P,33.5
L93Q,4.16

# Repeated from above (block 4):
Change,ABA EC50 [µM]
F5Q,3.12
D144Q,24.5
T160W,18.3
N114S,41.7
H16I,563
